Measurements collected from several papers.
Every numbered part comes from another study and shows a few of its results, in no order. Substitutions count along the parent as printed.

Block 1
Target: Histone acetyltransferase KAT6A, winged helix 2, GST fusion (KAT6A, Homo sapiens, UniProt Q92794, residues 85-181)
Method: protein binding microarray
Form: double-stranded DNA, one strand shown
Matrix: in vitro
Tested at: not given
Notes: 8-mer, flanks averaged, mean of 2 arrays, mostly near background
Reference: not given
Direction: higher = stronger binding
Quantity: E-score
Residues (chain): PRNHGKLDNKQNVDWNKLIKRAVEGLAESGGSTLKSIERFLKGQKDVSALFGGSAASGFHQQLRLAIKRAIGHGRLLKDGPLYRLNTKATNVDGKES
ATTTAAAT: 0.119
CGACTGGA: 0.0181
ATTCTTGA: -0.087
ACAAATGT: -0.01
CTAACCTC: -0.12
TCAGCACA: 0.0776
ACTCTCAG: -0.12
CAGGCTAA: -0.0607
TCATGCCA: -0.0199
GATGACCC: 0.113
AACCCGCA: 0.0577
CCACAGAC: -0.0474
CTGGTCAC: 0.0276
AATTTTAA: 0.161
AAGAATGG: 0.0086
CGAGATTC: 0.0691
TCCATAAA: -0.1
CCGCGCAC: 0.188
ACCCTTAC: -0.211
CCACGGCC: -0.014
CAAAGAGC: 0.0158
TCTAGACA: -0.0193
CCCATCTA: -0.145
CTCACGGC: 0.0962

Block 2
Target: ABI1, truncated, D143A, DHFR fusion (Arabidopsis thaliana)
Method: DHFR PCA, deep sequencing
Matrix: yeast
Notes: methotrexate growth selection, single substitutions
Added: (+)-ABA 4.8 µM
Reference: wild-type fitted maximum
Direction: higher = stronger binding
Quantity: relative binding score
Parent: PYL1, truncated, DHFR fusion (Arabidopsis thaliana); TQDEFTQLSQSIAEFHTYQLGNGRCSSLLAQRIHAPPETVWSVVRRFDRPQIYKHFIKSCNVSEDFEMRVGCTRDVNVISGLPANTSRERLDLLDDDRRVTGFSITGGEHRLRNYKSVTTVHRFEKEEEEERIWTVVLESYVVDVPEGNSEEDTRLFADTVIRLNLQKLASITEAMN
Q10I: 40.6%
G107P: -4.69%
G148L: 8.88%
S171C: 73.6%
L94T: -5.4%
K168T: 75%
A84R: 4.93%
D48V: -0.181%
H110I: -13.6%
D65A: 60.8%
R24S: 54.3%
D96Q: 5.66%
S59L: 10.8%
E129S: 81.6%
Q51H: 70.5%
K126C: 91.4%

Block 3
Target: ATF7, bZIP domain (human)
Method: DHFR protein complementation
Matrix: yeast
Notes: single substitutions, most at no-binding floor
Reference: wild-type JUN-FOS pair
Direction: higher = stronger binding
Quantity: binding fitness
Parent: JUN, bZIP domain (human); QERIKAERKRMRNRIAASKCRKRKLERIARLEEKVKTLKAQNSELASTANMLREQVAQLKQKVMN; partner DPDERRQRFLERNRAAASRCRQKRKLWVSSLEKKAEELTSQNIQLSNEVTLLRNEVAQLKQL
L31W: -1.36 natural log
L31M: -1.18 natural log
Q41T: -1.02 natural log
L52G: -1.5 natural log
S43F: -0.957 natural log
L38R: -1.43 natural log
T37G: -1.03 natural log
E44R: -1.06 natural log
R30I: -0.917 natural log
V35T: -1.42 natural log
A29V: -1.07 natural log
A57G: -1.18 natural log
A49V: -1.04 natural log
A57N: -1 natural log
A46K: -0.791 natural log
T37L: -0.84 natural log
V35H: -1.55 natural log
K39M: -1.04 natural log
A29W: -1.05 natural log
K36A: -0.686 natural log
A29D: -1.1 natural log
T48Y: -0.994 natural log
T37N: -0.794 natural log

Block 4
Target: RING finger protein unkempt homolog, zinc fingers 1-6, GST-SBP tag (UNK, Homo sapiens, UniProt Q9C0B0, residues 30-357)
Chain of UniProt Q9C0B0 (30-357, looked up): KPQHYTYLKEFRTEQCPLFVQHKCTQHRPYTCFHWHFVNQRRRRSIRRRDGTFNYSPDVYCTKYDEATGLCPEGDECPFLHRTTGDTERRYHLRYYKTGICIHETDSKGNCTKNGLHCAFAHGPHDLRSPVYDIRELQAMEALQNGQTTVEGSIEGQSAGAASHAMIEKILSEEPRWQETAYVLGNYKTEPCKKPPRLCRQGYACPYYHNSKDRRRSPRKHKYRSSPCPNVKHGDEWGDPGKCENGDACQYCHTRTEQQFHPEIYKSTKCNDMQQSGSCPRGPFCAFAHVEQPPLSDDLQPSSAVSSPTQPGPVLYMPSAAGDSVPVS
Method: RNA Bind-n-Seq
Form: RNA
Matrix: in vitro
Tested at: not given
Notes: RNA with constant flanks, ends assumed
Reference: input RNA pool
Direction: higher = stronger binding
Quantity: bound/input enrichment
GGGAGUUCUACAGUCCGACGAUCGAAUCCUACUCAGGCGGAUUUUGCAACACCAAGCUCACAGCAGCAGCAUCUUAGUCACAGCCGGGCCGUUUUGGGGCUCUGUGGCCAGGGUUUUAUUCACAUGCAGGUUUGGAAAAUGUACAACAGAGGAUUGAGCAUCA: 0.31 ratio
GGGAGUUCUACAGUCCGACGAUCAACAUAAAUUGUAUUUCCUGUUUUAAUUCCAGGGGAAGUACUGUUUGGGAAAGCUAUUAUCCGGUAAAUGUUUUACAAAUUACUGUUUCUCACUUUCAGUCAUACCCUAAUGAUCCCAGCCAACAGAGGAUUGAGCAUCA: 0.335 ratio
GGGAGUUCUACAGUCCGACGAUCCUGGCUGGAGUGUAGGCUGUACCCCAUUUCCUUGGCUCCCAUUAAAAAUCAACAACAUUCUAAUGAUCCGGGAACAACAGAAGGGGAACAGUCAUAGGAUAUACGAGCAGUAUAAAGAUACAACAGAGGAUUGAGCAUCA: 0.479 ratio
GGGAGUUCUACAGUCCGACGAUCGAGGAGAGUCUCACUGUAGAAAGUACUGACUUGAACGAUGAAAGAACAGGGGAGAGUCUCACUGCCGAAAGUACUGACUUGAACGAUUCUGCAGUAAACAUAGAAGCAUUUGUAGAGAGCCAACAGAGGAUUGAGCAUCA: 3.82 ratio
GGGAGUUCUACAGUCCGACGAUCUUCUGUGCACAUCAGUUGGCUGGUGAACAAGGCUAUAUCAGACUUAUUUUCCAAGGACCUUCCGACCCGCAGCUGUCCUCCAGGACUGCAUUGUAAGUUUAUAAGCUAAGUGAUUGGGUUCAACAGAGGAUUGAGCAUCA: 0.248 ratio
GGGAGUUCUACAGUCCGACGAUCUGCUUUUGCUACCACUGGAAGUUCCUUCUGUUUCUUGUGGAGUACCUUUUGCUGUCUGGGACUUGCCGAUAAUGGUGUUUCCUAGGGCUCCCUCCAGGGCCCUCUGCCUCACUAACUGGACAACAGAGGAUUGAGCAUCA: 0.191 ratio
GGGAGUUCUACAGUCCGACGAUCUGAACUACAAAGAGUAGAAGAGCUUUAUGAUUCAUUAUUACAAGCUAUUGCCUUCUAUGAAUCCGCAGUGUUUGACUCUCAGCCUUAGAAUUCUGAGGUUAACGUGCUAAAGUAUAAUUACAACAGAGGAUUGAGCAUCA: 0.259 ratio
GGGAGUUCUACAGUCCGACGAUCUACUUGGCAUAUCGAAAUUUUAUGAUUGACACGUAUCGUCUAAACCCCCAAGAGUAUUUAACCCGCACUGCUUGUCGGAGGAACUUGACUGGAGAUGUGUGUGCUGUGAUGAGGGUCCAUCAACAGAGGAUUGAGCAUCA: 0.34 ratio
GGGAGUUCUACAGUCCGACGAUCGGAACUGUGGUCCAUGGGAAAGUCUUACAGUAUUACCAGGAGUCUGAGAAACCUGAGGAGUCCGGAUCUGUAACUGUACAAAAAGAAUAUUCAUCCUCCUUUGACCGAGUUAUCAAAGAGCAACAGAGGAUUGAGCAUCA: 0.183 ratio
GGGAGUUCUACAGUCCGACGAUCAACAAGCCCUGCCCAGUGUGCAGACAGCCAAUCCAAAUGAUUGUGCUAACUUACUUCAACCCGCUGACCUGCUCACAAAAAUAGAAUUUUAUAUUUCUAACUAUAUGACCCCCAAAUUAGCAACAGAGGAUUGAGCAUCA: 30.6 ratio
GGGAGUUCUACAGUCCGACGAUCUUGUAGUCCUAAAAAGAUUUUUUUUUUUUAAAAUAAAGUCCAUCCUUGCAUUUAGGUUUUACCGAUCAGUCUUUUUAUUCCCACCCCUCCCCCAGUCGCAUUGAUCCCUAAUGGUGUGCUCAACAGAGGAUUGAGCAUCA: 2.94 ratio

Block 5
Target: CCND3, cyclin fold, Cln2 fusion (human)
Method: yeast growth competition, sequencing
Matrix: yeast
Notes: weak parent motif
Reference: not given
Direction: higher = stronger binding
Quantity: normalised enrichment score
Parent: FZR1 docking peptide (human); QDYERRLLRQIVI
D2A: 0.156
I11A: 0.216
R5A L7A: 0.174
E4A: 0.0868
L8A: 0.138
R5K: 0.16
R6A: 0.117
I13A: 0.0855
R5A: 0.24

Repeated from above (block 2):
A84R: 4.93%
D48V: -0.181%
H110I: -13.6%
D65A: 60.8%
R24S: 54.3%
D96Q: 5.66%
